Measurements pooled from the literature.
Compare with care: the assays were run in different laboratories. “And” joins repeats or separate records; there may be more than shown. ± gives the spread as reported.

Compound = CC1(F)CN(C(=O)Cn2c(=O)c(C(=O)NCc3ccc(Cl)cc3)cc3nc(N4CCNC4=O)cnc32)C1; target = DNA polymerase catalytic subunit (Human cytomegalovirus, UniProt P08546); test = enzyme activity, inhibitor; setting = retest; measurement = Hill slope; value = 0.9
Compound = O=C(O)c1ccc(Nc2ncc3c(n2)-c2ccc(Cl)cc2C(c2c(F)cccc2F)=NC3)cc1; target = MINK(h); test = kinase activity; setting = 1 µM; measurement = remaining activity; value = 104%
Compound = OC[C@H]1O[C@@H](Oc2cc3c(O)cc(O)cc3[o+]c2-c2ccc(O)cc2)[C@H](O)[C@@H](O)[C@@H]1O; target = Albumin (ALB, Homo sapiens, UniProt P02768); test = binding, fluorescence quenching; setting = 20 °C; measurement = Gibbs free energy; value = -5.82 kcal/mol
Compound = COc1cc(NC(=O)c2cscn2)ccc1/N=N/c1ccccc1Cl; target = GRM4 (Homo sapiens, UniProt Q14833); test = positive allosteric modulator, IP accumulation; system = HEK293; setting = 30 µM, in the dark, with: low-dose orthosteric agonist; measurement = activation; value = 104%
Compound = c1coc(-c2n[nH]cc2-c2ccnc3ccccc23)c1; target = Carbon catabolite-derepressing protein kinase (SNF1, Candida albicans, UniProt P52497); test = kinase binding, MIB/MS competition; system = Candida albicans lysate; setting = 1 µM; how to read = baseline: DMSO, negative = stronger binding; measurement = log2 fold change; value = -0.17
Compound = Cc1cc(-c2ccnc3[nH]cc(F)c23)cc(F)c1[C@@]1(O)[C@H](C)CN(C2CCS(=O)(=O)CC2)C[C@@H]1C; target = JAK1 (Homo sapiens, UniProt P23458); test = ATP/ADP probe binding, KiNativ; system = HEK293T lysate; setting = 10 µM, activation loop domain 2; measurement = probe labelling inhibition; value = 30.1%
Compound = N[C@H](CNC(=O)c1ccc(-c2ccccc2Br)s1)C(=O)O; target = Glutamate receptor ionotropic, NMDA 1, with GluN2C (Grin1, Rattus norvegicus, UniProt P35439, S688A); system = rat; setting = with: glutamate 300 µM; measurement = Hill slope; value = 1.54
Compound = Nc1nc2c(ncn2[C@@H]2O[C@H](COP(=O)(O)O)[C@@H](O)[C@H]2O)c(=O)[nH]1; target = GUK1 (Homo sapiens, UniProt Q16774, R44A); test = enzyme activity, NADH-coupled; setting = 7.812 µM; measurement = reaction rate; value = 1.89 s⁻¹ and -1.42 s⁻¹ and -0.65 s⁻¹
Compound = CCC[C@@H]1NC(=O)[C@H](CC2CCCCC2)NC(=O)[C@H](CC(C)C)NC(=O)[C@@H]2CCCN2C(=O)[C@@H](NC(=O)[C@H](CCCNC(=N)N)NC(=O)[C@H](CCCNC(=N)N)NC(C)=O)CSSC[C@@H](C(=O)N[C@@H](CCCNC(=N)N)C(=O)N[C@@H](CCCNC(=N)N)C(N)=O)NC(=O)[C@H](C(C)C)NC(=O)[C@@H]2CCCN2C(=O)[C@H](CC(=O)O)NC(=O)[C@H](Cc2ccc(O)cc2)NC(=O)[C@H](CO)NC1=O; target = GTPase KRas, GDP-bound (KRAS, Homo sapiens, UniProt P01116, G12D); test = affinity selection mass spectrometry; setting = mixture library 1, with: protein titration up to 5 µM; how to read = lower is stronger binding; measurement = lowest bound protein concentration; value = 2.5 µM
Compound = CC(=O)OC/C=C(\C)CCC=C(C)C; target = uncharacterized protein (Spodoptera exigua, UniProt F1CEY0); test = binding, competitor, fluorescence displacement; setting = 20 µM, pH 7.4, with: 1-NPN 20 µM; how to read = baseline: 1-NPN alone; measurement = relative fluorescence; value = 62.6%
Compound = C=CC(=O)N1CCC(COCC(=O)N2CCN(c3nc(-c4cnc(N)nc4C(F)F)nc(N4CCOC[C@@H]4C)n3)CC2)CC1; target = WEE2 (Homo sapiens, UniProt P0C1S8); test = KINOMEscan; setting = 1 µM; measurement = remaining binding; value = 97%
Compound = CC/C(=C(\c1ccc(O)cc1)c1ccc(OCCN(C)C)cc1)c1ccccc1; target = Voltage-gated sodium channel NavMs (Magnetococcus marinus, UniProt A0L5S6); test = sodium current, inhibitor, voltage dependence of inactivation; setting = concentration not given; measurement = half-inactivation voltage; value = -122 ± 8 mV
Compound = CC(=O)N[C@H](C(=O)N1C[C@H](O)C[C@H]1C(=O)NCc1ccc(-c2scnc2C)cc1)C(C)(C)SCCCCCCNC(=O)C[C@@H]1N=C(c2ccc(Cl)cc2)c2c(sc(C)c2C)-n2c(C)nnc21; target = BRD4/VHL, BD1; with elongins B/C (Homo sapiens, UniProt O60885+P40337); test = ternary complex binding, ITC; setting = 25 °C, with: VHL-ElonginB-ElonginC titrated into compound:PROTAC:Brd4^BD1 complex; measurement = −TΔS; value = -6.57 ± 0.04 kcal/mol
Compound = O=C(Nc1cccc2c(=O)cc(-c3nnn[nH]3)oc12)c1ccc(OCCCCc2ccccc2)cc1; target = Volume-regulated anion channel subunit LRRC8C, part LRRC8A IL1 chimera (LRRC8C, Homo sapiens, UniProt Q8TDW0); test = ion current, inhibitor, whole-cell patch clamp; system = HCT LRRC8-/- cells, transfected; setting = 1 µM, low ionic strength swelling, -100 mV; measurement = inhibition; value = 1.67% and 49.4% and 15.2% and 43.8%
Compound = COc1cc(/C=C/c2ccc(O)cc2)cc(OC)c1; target = O-methyltransferase (Sorghum bicolor, UniProt A0A1B6PFV1); test = ITC; setting = concentration not given, one set of sites, with: SFG; measurement = binding stoichiometry; value = 0.45
